Experimental data from different studies.
Each numbered part is a random draw from the data of one study; scales do not carry over between parts.
Chain of UniProt Q8IVH8 (whole entry, looked up): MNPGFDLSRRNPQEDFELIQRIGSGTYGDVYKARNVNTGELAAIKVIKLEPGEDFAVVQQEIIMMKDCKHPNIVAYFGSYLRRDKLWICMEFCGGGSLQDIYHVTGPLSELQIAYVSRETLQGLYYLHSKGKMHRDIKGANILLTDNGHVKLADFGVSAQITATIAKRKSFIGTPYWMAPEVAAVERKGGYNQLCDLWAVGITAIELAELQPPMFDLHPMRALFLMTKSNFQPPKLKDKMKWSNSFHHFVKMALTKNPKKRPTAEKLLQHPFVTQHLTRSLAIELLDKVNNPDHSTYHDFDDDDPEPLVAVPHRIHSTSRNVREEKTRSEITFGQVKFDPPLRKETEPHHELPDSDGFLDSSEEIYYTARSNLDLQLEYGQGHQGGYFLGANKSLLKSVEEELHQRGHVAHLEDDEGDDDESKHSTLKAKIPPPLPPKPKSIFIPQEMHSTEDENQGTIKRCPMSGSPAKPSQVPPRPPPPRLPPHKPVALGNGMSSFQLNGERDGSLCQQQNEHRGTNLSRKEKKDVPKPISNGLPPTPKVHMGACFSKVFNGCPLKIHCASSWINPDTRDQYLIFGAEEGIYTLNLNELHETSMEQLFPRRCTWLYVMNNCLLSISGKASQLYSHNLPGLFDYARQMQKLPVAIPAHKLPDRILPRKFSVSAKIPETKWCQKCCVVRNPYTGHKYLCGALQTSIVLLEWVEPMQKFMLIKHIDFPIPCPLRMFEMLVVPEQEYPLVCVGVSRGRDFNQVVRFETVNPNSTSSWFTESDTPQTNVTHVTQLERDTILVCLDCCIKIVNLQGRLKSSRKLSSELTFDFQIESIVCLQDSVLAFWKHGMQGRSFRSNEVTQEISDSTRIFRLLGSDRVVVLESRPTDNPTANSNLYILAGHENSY
Chain of UniProt Q92918 (whole entry, looked up): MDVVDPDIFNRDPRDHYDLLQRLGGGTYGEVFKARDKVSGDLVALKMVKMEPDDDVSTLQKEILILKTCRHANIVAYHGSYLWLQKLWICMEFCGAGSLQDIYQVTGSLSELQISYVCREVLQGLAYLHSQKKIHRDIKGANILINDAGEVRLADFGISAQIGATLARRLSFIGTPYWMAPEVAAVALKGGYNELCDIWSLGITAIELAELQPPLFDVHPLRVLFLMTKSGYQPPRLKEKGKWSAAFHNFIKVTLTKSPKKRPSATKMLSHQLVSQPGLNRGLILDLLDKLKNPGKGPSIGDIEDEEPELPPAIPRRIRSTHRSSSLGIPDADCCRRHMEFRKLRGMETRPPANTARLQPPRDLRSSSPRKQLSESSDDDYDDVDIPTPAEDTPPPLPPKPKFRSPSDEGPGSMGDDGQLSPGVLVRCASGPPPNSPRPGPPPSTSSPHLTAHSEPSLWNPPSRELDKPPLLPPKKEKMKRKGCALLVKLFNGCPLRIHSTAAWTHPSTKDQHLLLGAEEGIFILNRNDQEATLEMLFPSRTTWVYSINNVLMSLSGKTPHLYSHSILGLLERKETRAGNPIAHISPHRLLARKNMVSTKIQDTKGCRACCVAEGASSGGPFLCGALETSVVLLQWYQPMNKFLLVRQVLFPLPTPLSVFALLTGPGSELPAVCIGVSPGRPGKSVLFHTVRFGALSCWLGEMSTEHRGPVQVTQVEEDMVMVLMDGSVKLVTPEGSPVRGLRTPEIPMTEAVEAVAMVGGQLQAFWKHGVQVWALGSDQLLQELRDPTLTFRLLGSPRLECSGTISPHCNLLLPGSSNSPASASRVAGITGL
Chain of UniProt P31152 (whole entry, looked up): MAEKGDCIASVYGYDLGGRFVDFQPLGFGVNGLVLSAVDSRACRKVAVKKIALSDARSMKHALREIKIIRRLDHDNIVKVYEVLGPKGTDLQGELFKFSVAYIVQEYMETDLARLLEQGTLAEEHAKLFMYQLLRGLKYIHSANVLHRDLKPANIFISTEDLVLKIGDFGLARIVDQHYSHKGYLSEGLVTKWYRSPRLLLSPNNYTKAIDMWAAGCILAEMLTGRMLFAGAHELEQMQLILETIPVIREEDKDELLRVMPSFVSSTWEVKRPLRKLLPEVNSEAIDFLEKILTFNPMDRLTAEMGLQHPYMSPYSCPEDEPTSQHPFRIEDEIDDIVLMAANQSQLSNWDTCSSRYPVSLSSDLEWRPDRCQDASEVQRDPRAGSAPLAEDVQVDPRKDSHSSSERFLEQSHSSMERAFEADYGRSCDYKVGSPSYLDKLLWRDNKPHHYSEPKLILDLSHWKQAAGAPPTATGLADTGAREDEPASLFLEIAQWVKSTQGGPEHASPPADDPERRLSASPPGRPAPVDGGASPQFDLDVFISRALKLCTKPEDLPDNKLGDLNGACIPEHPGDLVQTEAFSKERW
Chain of UniProt Q9UBF8 (whole entry, looked up): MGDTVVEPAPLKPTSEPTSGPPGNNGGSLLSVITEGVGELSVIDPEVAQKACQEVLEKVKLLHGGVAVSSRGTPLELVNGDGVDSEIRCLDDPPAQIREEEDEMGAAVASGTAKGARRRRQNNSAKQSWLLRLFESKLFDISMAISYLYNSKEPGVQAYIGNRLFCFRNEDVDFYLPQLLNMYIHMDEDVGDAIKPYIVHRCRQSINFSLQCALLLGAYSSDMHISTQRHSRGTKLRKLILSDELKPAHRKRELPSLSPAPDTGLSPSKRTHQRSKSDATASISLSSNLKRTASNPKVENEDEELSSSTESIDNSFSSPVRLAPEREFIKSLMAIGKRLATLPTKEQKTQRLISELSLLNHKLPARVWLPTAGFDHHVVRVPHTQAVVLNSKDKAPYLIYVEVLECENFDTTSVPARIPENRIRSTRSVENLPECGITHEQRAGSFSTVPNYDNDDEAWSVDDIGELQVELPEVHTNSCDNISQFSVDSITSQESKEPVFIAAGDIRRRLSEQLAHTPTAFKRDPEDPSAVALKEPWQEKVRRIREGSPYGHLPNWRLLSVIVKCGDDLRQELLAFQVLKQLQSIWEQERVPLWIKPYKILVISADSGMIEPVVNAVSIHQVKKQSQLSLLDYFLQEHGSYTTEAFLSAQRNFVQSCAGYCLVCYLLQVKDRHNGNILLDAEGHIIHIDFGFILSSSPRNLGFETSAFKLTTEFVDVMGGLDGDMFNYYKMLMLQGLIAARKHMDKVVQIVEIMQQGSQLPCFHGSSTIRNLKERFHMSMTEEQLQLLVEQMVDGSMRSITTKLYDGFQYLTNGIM
Chain of UniProt P42336 (whole entry, unmodified, looked up): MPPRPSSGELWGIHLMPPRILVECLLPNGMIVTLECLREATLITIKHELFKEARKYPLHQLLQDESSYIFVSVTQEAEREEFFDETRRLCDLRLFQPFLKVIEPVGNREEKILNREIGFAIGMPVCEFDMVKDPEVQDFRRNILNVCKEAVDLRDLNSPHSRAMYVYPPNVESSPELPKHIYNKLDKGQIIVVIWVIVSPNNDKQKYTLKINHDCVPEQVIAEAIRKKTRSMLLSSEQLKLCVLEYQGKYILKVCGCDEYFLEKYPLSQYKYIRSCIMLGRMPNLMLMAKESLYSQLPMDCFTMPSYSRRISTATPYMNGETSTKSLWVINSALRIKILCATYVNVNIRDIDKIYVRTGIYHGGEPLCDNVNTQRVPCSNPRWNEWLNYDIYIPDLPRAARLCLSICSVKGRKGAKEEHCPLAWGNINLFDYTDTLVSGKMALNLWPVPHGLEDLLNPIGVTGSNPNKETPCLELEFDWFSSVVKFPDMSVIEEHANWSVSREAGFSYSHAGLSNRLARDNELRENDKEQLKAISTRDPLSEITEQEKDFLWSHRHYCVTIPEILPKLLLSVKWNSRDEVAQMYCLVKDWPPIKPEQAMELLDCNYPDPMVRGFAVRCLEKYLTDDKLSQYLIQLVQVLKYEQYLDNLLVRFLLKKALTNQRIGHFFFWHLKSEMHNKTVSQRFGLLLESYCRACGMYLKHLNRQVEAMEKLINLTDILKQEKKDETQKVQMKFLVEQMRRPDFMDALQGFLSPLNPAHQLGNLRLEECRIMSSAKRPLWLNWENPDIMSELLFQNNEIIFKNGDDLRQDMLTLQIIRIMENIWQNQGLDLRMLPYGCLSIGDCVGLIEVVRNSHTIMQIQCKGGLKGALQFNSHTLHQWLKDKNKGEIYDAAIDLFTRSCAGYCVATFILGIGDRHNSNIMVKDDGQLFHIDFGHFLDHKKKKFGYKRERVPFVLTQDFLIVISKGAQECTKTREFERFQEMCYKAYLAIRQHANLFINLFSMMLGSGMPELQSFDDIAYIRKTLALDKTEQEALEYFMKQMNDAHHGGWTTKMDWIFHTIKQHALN
Chain of UniProt P11309 (whole entry, looked up): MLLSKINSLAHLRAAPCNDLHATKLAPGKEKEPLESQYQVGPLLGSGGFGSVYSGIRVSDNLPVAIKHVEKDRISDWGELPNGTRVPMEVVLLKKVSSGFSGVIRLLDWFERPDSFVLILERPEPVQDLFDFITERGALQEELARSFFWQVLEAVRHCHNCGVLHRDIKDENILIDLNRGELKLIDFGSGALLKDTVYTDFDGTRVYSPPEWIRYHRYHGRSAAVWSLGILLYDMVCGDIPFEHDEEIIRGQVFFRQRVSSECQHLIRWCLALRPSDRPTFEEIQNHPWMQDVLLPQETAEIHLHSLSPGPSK

Block 1 — organism: Sarcocystis neurona; effect on: parasite growth; concentration: 10 µM; time: 96 h
For CN(C)CCc1c[nH]c2ccc(C[C@H]3COC(=O)N3)cc12, the inhibition was -9.5%.
With Cc1ccc(Cl)c(Nc2ccccc2C(=O)O)c1Cl the inhibition was -16.7%.
The inhibition of O=C1c2c(O)cc(O)cc2OC(c2ccc(O)c(O)c2)C1O (centres unmarked) is reported as -7.4%.
With CC1(C)S[C@@H]2[C@H](NC(=O)[C@H](N)c3ccccc3)C(=O)N2[C@H]1C(=O)O the inhibition was -11%.
Cc1ncc([N+](=O)[O-])n1CCO gave an inhibition of -8.9%.
CC1(C)S[C@@H]2[C@H](NC(=O)COc3ccccc3)C(=O)N2[C@H]1C(=O)O gave an inhibition of -0.4%.
For Cc1cc(NS(=O)(=O)c2ccc(N)cc2)no1, the inhibition was -11.9%.
With CC=CC(=O)N(CC)c1ccccc1C (mixture of isomers) the inhibition was -17.6%.
CCN(CC)CCNC(=O)c1ccc(N)cc1 has an inhibition of -8.6%.
For Clc1ccc(COC(Cn2ccnc2)c2ccc(Cl)cc2Cl)cc1 (centres unmarked), the inhibition was 1.4%.
The inhibition of CN1[C@@H]2C[C@@H](OC(=O)[C@H](CO)c3ccccc3)C[C@H]1[C@@H]1O[C@@H]12 is reported as -18%.
The inhibition of C=CCc1ccc(O)c(-c2ccc(O)c(CC=C)c2)c1 is reported as -16.4%.
The inhibition of CCCc1c(OCCCCc2nnn[nH]2)ccc(C(C)=O)c1O is reported as -15.5%.
O=[N+]([O-])c1cccc2cn[nH]c12 has an inhibition of -5%.
O=c1cnn([C@@H]2O[C@H](CO)[C@@H](O)[C@H]2O)c(=O)[nH]1 gave an inhibition of -16.2%.
For Cc1cccc(Nc2ccncc2S(=O)(=O)NC(=O)NC(C)C)c1, the inhibition was -15.2%.

Block 2 — effect on: cell-free assay; method: competition with immobilised ligand; concentration: 1 µM
Structure (SMILES): C[C@@H]1CN(c2cc(-c3nn(C)c4ccc(OC5(C)CC5)cc34)ncn2)C[C@H](C)O1
Mitogen-activated protein kinase 4 (MAPK4, Homo sapiens, UniProt P31152) — remaining binding: 93%.
The remaining binding was 68% (Serine/threonine-protein kinase B-raf (BRAF, Homo sapiens, UniProt P15056)).
For Casein kinase I isoform gamma-2 (CSNK1G2, Homo sapiens, UniProt P78368): remaining binding read 100%.
Leucine-rich repeat serine/threonine-protein kinase 2 (LRRK2, Homo sapiens, UniProt Q5S007, G2019S) — remaining binding: 36%.
For Receptor-type tyrosine-protein kinase FLT3 (FLT3, Homo sapiens, UniProt P36888, R834Q): remaining binding read 90%.
The remaining binding was 98% (SRSF protein kinase 3 (SRPK3, Homo sapiens, UniProt Q9UPE1)).
The remaining binding was 84% (Serine/threonine-protein kinase PLK3 (PLK3, Homo sapiens, UniProt Q9H4B4)).
It gave 89% for remaining binding (Phosphatidylinositol 4-kinase beta (PI4KB, Homo sapiens, UniProt Q9UBF8)).
The remaining binding was 93% (Tyrosine-protein kinase receptor TYRO3 (TYRO3, Homo sapiens, UniProt Q06418)).
It gave 79% for remaining binding (Phosphatidylinositol 4,5-bisphosphate 3-kinase catalytic subunit alpha isoform (PIK3CA, Homo sapiens, UniProt P42336, E545K)).
It gave 89% for remaining binding (Mitogen-activated protein kinase kinase kinase 7 (MAP3K7, Homo sapiens, UniProt O43318)).
It gave 86% for remaining binding (Glycogen synthase kinase-3 alpha (GSK3A, Homo sapiens, UniProt P49840)).
It gave 100% for remaining binding (Insulin-like growth factor 1 receptor (IGF1R, Homo sapiens, UniProt P08069)).
For Receptor-type tyrosine-protein kinase FLT3 (FLT3, Homo sapiens, UniProt P36888, N841I): remaining binding read 85%.
Mitogen-activated protein kinase kinase kinase kinase 3 (MAP4K3, Homo sapiens, UniProt Q8IVH8) — remaining binding: 100%.
For Mitogen-activated protein kinase kinase kinase kinase 1 (MAP4K1, Homo sapiens, UniProt Q92918): remaining binding read 100%.
It gave 80% for remaining binding (Megakaryocyte-associated tyrosine-protein kinase (MATK, Homo sapiens, UniProt P42679)).
Mitogen-activated protein kinase 6 (MAPK6, Homo sapiens, UniProt Q16659) — remaining binding: 97%.
The remaining binding was 77% (Serine/threonine-protein kinase pim-1 (PIM1, Homo sapiens, UniProt P11309)).
It gave 100% for remaining binding (Serine/threonine-protein kinase 35 (STK35, Homo sapiens, UniProt Q8TDR2)).
For Protein-tyrosine kinase 6 (PTK6, Homo sapiens, UniProt Q13882): remaining binding read 92%.
It gave 76% for remaining binding (Epidermal growth factor receptor (EGFR, Homo sapiens, UniProt P00533, G719C)).
Phosphatidylinositol 4-phosphate 5-kinase type-1 alpha (PIP5K1A, Homo sapiens, UniProt Q99755) — remaining binding: 100%.
The remaining binding was 100% (Ephrin type-B receptor 3 (EPHB3, Homo sapiens, UniProt P54753)).
It gave 91% for remaining binding (Cyclin-dependent kinase 4 (CDK4, Homo sapiens, UniProt P11802)).

Block 3 — species: human; medium: microsomes or S9; concentration: 2 µM; time: 0.5 h
The remaining compound of Cc1n[nH]c(=O)c(C(=O)NC2CCc3nc(C(C)(C)C)cn3C2)c1C (centres unmarked) is reported as 83.6%.
COc1ccc(C2=C(c3ccc(F)cc3F)c3ccc(OCCCN4CCN(S(C)(=O)=O)CC4)cc3C2=O)cn1 gave a remaining compound of 95%.
The remaining compound of CCC(=O)N1CCCC1c1nc2ccccc2n1CC(=O)N(c1ccccc1)C(C)C (centres unmarked) is reported as 9.23%.
O=C(O)c1cccnc1C(=O)OCc1ccccc1 has a remaining compound of 26.5%.
O=C(NCCNC1=NS(=O)(=O)c2ccccc21)c1cccc(Br)c1 has a remaining compound of 92.7%.
With O=S(=O)(c1c[nH]c2ncc(Cl)cc12)N1CCn2ncnc2C1 the remaining compound was 20.1%.
COc1ccc(OCC(=O)N(Cc2ccc(Br)o2)C2CCS(=O)(=O)C2)cc1 (centres unmarked) has a remaining compound of > 100%.
With O=C(CC(c1ccccc1)c1ccccc1)N1CCN(c2ccccn2)CC1 the remaining compound was 10.3%.
For O=c1oc2ccccc2n1Cc1c(-c2ccc(F)cc2)nc2ccccn12, the remaining compound was 84.9%.
The remaining compound of CC(=O)CC(CC(C)C)n1nnc(-c2ccccc2)n1 (centres unmarked) is reported as 8.46%.
CCOC(C)c1nc(Cn2nc3ccccn3c2=O)cs1 (centres unmarked) has a remaining compound of 91.7%.
For CCCc1noc2nc(CC)cc(C(=O)N(C)Cc3ncon3)c12, the remaining compound was 85.6%.

Block 4 — effect on: enzyme activity; mode: inhibitor; concentration: 0.5 µM; baseline: control
Target: Death-associated protein kinase 3 (DAPK3, Homo sapiens, UniProt O43293)
Chain of UniProt O43293 (whole entry, looked up): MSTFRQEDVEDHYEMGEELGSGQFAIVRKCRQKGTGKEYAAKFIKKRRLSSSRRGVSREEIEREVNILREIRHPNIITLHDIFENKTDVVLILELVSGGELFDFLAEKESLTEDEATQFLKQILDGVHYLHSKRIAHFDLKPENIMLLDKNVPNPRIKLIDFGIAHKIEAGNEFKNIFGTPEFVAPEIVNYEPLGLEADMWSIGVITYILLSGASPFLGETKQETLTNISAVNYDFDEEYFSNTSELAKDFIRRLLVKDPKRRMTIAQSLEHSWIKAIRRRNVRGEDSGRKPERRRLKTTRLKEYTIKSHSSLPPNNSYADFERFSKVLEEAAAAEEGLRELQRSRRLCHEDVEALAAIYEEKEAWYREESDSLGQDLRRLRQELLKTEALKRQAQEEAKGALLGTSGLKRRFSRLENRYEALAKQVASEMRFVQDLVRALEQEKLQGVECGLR
For Cc1nc(Nc2ncc(C(=O)Nc3c(C)cccc3Cl)s2)cc(N2CCN(CCO)CC2)n1, the remaining activity was 107%.
For O=c1cc(N2CCOCC2)oc2c1ccc1ccccc12, the remaining activity was 94.6%.
The remaining activity of O=C(Nc1ccc(Cl)cc1)c1ccccc1NCc1ccncc1 is reported as 94%.
O=C1NC(=O)/C(=C/c2ccc3nccnc3c2)S1 has a remaining activity of 93.3%.
With Cn1cc(/C=C2\C(=O)Nc3ccc(S(N)(=O)=O)cc32)c2ccccc21 the remaining activity was 94.1%.
Cn1cnc2cc3c(Nc4cccc(Br)c4)ncnc3cc21 has a remaining activity of 93.7%.
The remaining activity of COc1cc2ncc(-c3ccccc3)nc2cc1OC is reported as 84.7%.
For CC(C)[C@H](CO)Nc1nc(Nc2cccc(Cl)c2)c2ncn(C(C)C)c2n1, the remaining activity was 104%.
With CC(C)c1nn(-c2c(Cl)cccc2Cl)c2nc(Cc3ccc(OCCO)cc3)[nH]c(=O)c12 the remaining activity was 104%.
With COc1cc2ncnc(Nc3ccc(OCc4ccccc4)cc3)c2cc1OC the remaining activity was 99.2%.
The remaining activity of C[S+]([O-])c1ccc(-c2nc(-c3ccncc3)c(-c3ccc(F)cc3)[nH]2)cc1 (centres unmarked) is reported as 95.5%.
For CCOc1cc2ncnc(Nc3cccc(Br)c3)c2cc1OCC, the remaining activity was 103%.
With Cc1ccc(NC(=O)c2ccc(CN3CCN(C)CC3)cc2)cc1Nc1nccc(-c2cccnc2)n1 the remaining activity was 91.5%.
The remaining activity of COc1ccc(Cl)cc1NC(=O)Nc1cc(C)nc2ccccc12 is reported as 100%.
COc1cc2ncnc(N3CCN(C(=O)Nc4ccc(Oc5ccccc5)cc4)CC3)c2cc1OC has a remaining activity of 101%.
Nc1[nH]nc2nnc(-c3c(-c4ccccc4)nn4ccccc34)cc12 has a remaining activity of 102%.
With CCC(=O)Nc1ccc2ncnc(Nc3cccc(Br)c3)c2c1 the remaining activity was 104%.
With COc1ccc(-c2cnc3c(-c4ccsc4)cnn3c2)cc1 the remaining activity was 81.9%.
CC(=O)O/N=C1/C(c2c(O)[nH]c3cc(Br)ccc23)=Nc2ccccc21 has a remaining activity of 82.2%.
For CN(C)CCCn1cc(C2=C(c3c[nH]c4ccccc34)C(=O)NC2=O)c2ccccc21, the remaining activity was 84.5%.
The remaining activity of CCN1/C(=C/C(C)=O)Sc2ccc(OC)cc21 is reported as 98.7%.

Some of these lines once more (block 1):
With Cc1ccc(Cl)c(Nc2ccccc2C(=O)O)c1Cl the inhibition was -16.7%.
For CN(C)CCc1c[nH]c2ccc(C[C@H]3COC(=O)N3)cc12, the inhibition was -9.5%.
CCN(CC)CCNC(=O)c1ccc(N)cc1 has an inhibition of -8.6%.
Cc1ncc([N+](=O)[O-])n1CCO gave an inhibition of -8.9%.
O=c1cnn([C@@H]2O[C@H](CO)[C@@H](O)[C@H]2O)c(=O)[nH]1 gave an inhibition of -16.2%.
The inhibition of CN1[C@@H]2C[C@@H](OC(=O)[C@H](CO)c3ccccc3)C[C@H]1[C@@H]1O[C@@H]12 is reported as -18%.
